Experimental data pooled from the literature.
Parts stem from different laboratories: compare values within a part only. Substitutions count along the parent as printed.

Block 1
Target: Sal-like protein 4, full length isoform B (SALL4, Homo sapiens, UniProt Q9UJQ4-2, residues 1-616)
Method: universal PBM
Form: double-stranded DNA, one strand shown
Medium: in vitro
Concentration: not given
Notes: 8-mer, flanks averaged, mean of replicates
Reading: higher = stronger binding
The E-score of `AGTCTGGA` is reported as 0.00525.
For `TATTTTCA`, the E-score was 0.313.
`TGAACCAA` gave an E-score of 0.154.
The E-score of `CAGAAGCG` is reported as -0.0648.
The E-score of `ACATACCC` is reported as 0.14.
With `AGCTGAAC` the E-score was -0.228.
The E-score of `ACATCTCC` is reported as 0.0267.
For `AAATACCC`, the E-score was -0.0216.
For `CGTATGCA`, the E-score was 0.112.
The E-score of `GCGCTCGA` is reported as -0.233.
`CCAAATGA` gave an E-score of 0.185.
`CTTGCAAC` gave an E-score of 0.0564.
`ATTCCGTG` gave an E-score of 0.00712.
For `GTACGGCA`, the E-score was -0.104.
The E-score of `ACAGAGGT` is reported as 0.0248.
For `CGAAGTGC`, the E-score was 0.0324.
`GATGCGGC` gave an E-score of -0.288.
With `AAACTCTT` the E-score was -0.0445.
For `AAGCCATT`, the E-score was 0.162.

Block 2
Target: RNA binding protein fox-1 homolog 2, RRM domain, GST-SBP tag (RBFOX2, Homo sapiens, UniProt O43251-10, residues 100-194)
Method: RNA Bind-n-Seq
Form: RNA
Medium: in vitro
Concentration: 365 nM
Notes: natural RNA segment, single round, ends assumed
Reference: no-protein control
Reading: higher = stronger binding
Shared flanks, not repeated: GGGAGUUCUACAGUCCGACGAUC … UGGAAUUCUCGGGUGCCAA
Construct (chain): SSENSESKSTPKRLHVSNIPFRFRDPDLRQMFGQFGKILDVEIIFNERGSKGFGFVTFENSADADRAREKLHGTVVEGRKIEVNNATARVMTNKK
`UAUAAGAGUGUUAAGGACCUAAUAGAGUGACAUAUAUAAAUUAAGCAUAAAAUAUGUAACCAGGAAAAGACUGUUAACAUUACAUUUAUGCAAAUUAAAUGCCCUUAAAU`: “RBNS enrichment (R)” 0.344.
Under “RBNS enrichment (R)”, `CUUCUGCCCUAACUAUUGUGUAGCCUCUUAUGCUGAAAUCGGCUUCUGCUGGCUUCUCCGGCUUUCAGAGCCCUGAAACAAAGAGAAACAGGAUCUGUCCCUACCCAGCA` is recorded as 0.632.
Under “RBNS enrichment (R)”, `UAUGGAAGGGGCCAAGAGGAGCUGCAAGGCAGCCCGGUUAGUGUUCGGGUGAAAUGGCAAGUUGUACAGCCCCCUCGGGCUUGUUUUGUGCUCUCCUGUCACAAAUGCUG` is recorded as 0.679.
`GUGGAGAAAACAUUUUCAUGCCUAAAAAUGUCUUUGAGAUAAUGCCAAUUCUGAUGUCCCUUACCUUUUGGCCAAGAAGUUUGAGAUUUUUUCAGCUAAUUUGUUAUUUG`: “RBNS enrichment (R)” 0.511.
`GUGCCUAUGAAAUCUCAUCCAACUUUUGAUUAUUCAUGGAUUGAUUAUCCGCUUUUUUUUUGCUUUUUUGCUGCCAUUGCUAUGCCUGGUCUCGUCUGCAUCAAAUAUAC`: “RBNS enrichment (R)” 1.79.
`GUACAAAUGUGUUACACAUAAAUGUUUUCCUUCCUGGGGGUCUGUGUUGGAUGUUGUGGGCCUGGAGUCAAUAGGAACAUACAAUGUGUGUAGUGUCCGCUAAGGUUGCA`: “RBNS enrichment (R)” 20.3.
For `AUUUCCCUAGAACCUUAAUGGUAGAAGGAAUUGCAAAGAAUCAAGUCCACCCUUCUCAUGUGACAGAUGGGGAAACUGAGGCCUUGAGAAGGAAAAAGGCUAAUCUAAGU`, “RBNS enrichment (R)” read 0.508.
`UUUCCAGGUCCCUGCUUCUCACCUCCUCCAUCUUGCUUCGCCUUUCAAUAAACAGUUGAUGCAUACCCCAGCGUGGCUUCCUUUUGAAGUUCUCAACCUGUGGGUCGCGA` — result for “RBNS enrichment (R)”: 0.293.
`UACUGUAUUGUUUGCUUUCCUUAAGUGCAGUCAUCUCUGAUAGCUUGAGUGAUGGUGUUUCAAAUCCUGUAGUCCUAUGGUGGCUUUCCUUGCCUGUUACUUUAGAGAUC`: “RBNS enrichment (R)” 0.509.
For `GGAUUGCCUUGGUUGACUUUUAAUUUAUUGUUUUUUGUUCUUAUAAAGAUGAUAAUCUUACCUUGCAGUUAUUGACUUUAUAUUCAAUUAUUUACAUCAAAUAAUGAAAU`, “RBNS enrichment (R)” read 2.11.
Under “RBNS enrichment (R)”, `CCACUGAGUACCAGGGGCUGGGCUCCCUGAUGACACCCACCCUGUGCCAUCACCAUAACCUCUGGGGACCCCAACCUCAGAGGCAGCUUCAAGUGCCUUUUGCUGCGCAC` is recorded as 0.433.
`UCCCGUCCAUUCCAGUCAAAUCUGGGCUCACUCACCCCAGCGAGCUCUCAAAUCCCUCUCCAACUGCCUAAGGCCCUUUGUGUAAGGUGUCUUAAUACUGUCCUUUUUUU` — result for “RBNS enrichment (R)”: 0.757.

Block 3
Target: Histone acetyltransferase KAT6A, both winged helices, GST fusion (KAT6A, Homo sapiens, UniProt Q92794, residues 1-181)
Method: protein binding microarray
Form: double-stranded DNA, one strand shown
Medium: in vitro
Concentration: not given
Notes: 8-mer, flanks averaged, mean of 2 arrays, mostly near background
Reference: not given
Reading: higher = stronger binding
Target sequence (chain): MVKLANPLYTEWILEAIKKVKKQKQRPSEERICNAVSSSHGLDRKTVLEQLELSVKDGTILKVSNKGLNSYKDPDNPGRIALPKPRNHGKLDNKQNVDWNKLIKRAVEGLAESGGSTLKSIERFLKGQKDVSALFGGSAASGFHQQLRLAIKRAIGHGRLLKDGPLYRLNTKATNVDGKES
`ACTGGACG` has an E-score of 0.0869.
`AGCCCAAG` gave an E-score of -0.097.
For `GCCACCCC`, the E-score was -0.038.
`AAAATACT` has an E-score of -0.0753.
The E-score of `AGCAGGGC` is reported as -0.0426.
`GCTAGACA` gave an E-score of 0.158.
`CGAATCAG` gave an E-score of -0.101.
`ATTTCAAC` has an E-score of 0.0126.
`AACGAAGA` has an E-score of -0.0734.
`GTTGTGTA` gave an E-score of 0.00685.
The E-score of `AGAAGACG` is reported as -0.0599.
`GATGCCCA` has an E-score of -0.0695.
`GATAGTAC` has an E-score of -0.0652.
`GGACACCA` has an E-score of -0.0777.
`AGCGCGTC` gave an E-score of 0.325.
With `CACTAAGA` the E-score was -0.105.
`CAACCCGG` gave an E-score of 0.151.
With `TAGCCACA` the E-score was -0.0462.
For `AGGAGCAT`, the E-score was -0.146.
`GCGTGAGC` has an E-score of 0.284.
The E-score of `GATTGTCC` is reported as -0.0512.
For `CAAACAAG`, the E-score was -0.0365.
`GAAGTGTA` gave an E-score of -0.15.
With `AGTGCATA` the E-score was -0.0164.
With `GCGTGACC` the E-score was 0.186.

Block 4
Target: ABI1, truncated, D143A, DHFR fusion (Arabidopsis thaliana)
Method: DHFR PCA, deep sequencing
Medium: yeast
Notes: methotrexate growth selection, single substitutions
Added: (+)-ABA 4.8 µM
Reference: wild-type fitted maximum
Reading: higher = stronger binding
Starting sequence: PYL1, truncated, DHFR fusion (Arabidopsis thaliana); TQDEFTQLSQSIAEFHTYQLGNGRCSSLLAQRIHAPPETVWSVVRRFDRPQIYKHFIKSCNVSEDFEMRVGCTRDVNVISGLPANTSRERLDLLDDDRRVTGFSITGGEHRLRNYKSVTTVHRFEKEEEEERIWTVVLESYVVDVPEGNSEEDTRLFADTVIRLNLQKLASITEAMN; partner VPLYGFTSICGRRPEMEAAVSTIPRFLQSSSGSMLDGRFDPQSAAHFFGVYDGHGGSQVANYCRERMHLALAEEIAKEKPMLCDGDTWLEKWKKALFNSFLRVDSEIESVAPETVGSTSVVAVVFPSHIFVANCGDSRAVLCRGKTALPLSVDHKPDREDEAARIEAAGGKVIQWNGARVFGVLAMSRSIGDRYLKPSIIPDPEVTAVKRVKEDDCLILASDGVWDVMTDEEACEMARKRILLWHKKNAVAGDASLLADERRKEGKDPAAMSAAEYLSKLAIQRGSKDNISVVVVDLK
For `R69H`, “relative binding score” read 64.5%.
`L28F`: “relative binding score” 35.4%.
For `T86W`, “relative binding score” read 92.5%.
For `T6I`, “relative binding score” read 66.2%.
For `D92C`, “relative binding score” read -7.71%.
For `L112Q`, “relative binding score” read 1.66%.
`D159Y` — result for “relative binding score”: 1.71%.
`E64S` — result for “relative binding score”: 73.5%.
`E147M`: “relative binding score” 57.9%.
`T101A`: “relative binding score” 37.8%.
`V145A` — result for “relative binding score”: 7.78%.
Under “relative binding score”, `V43S` is recorded as -8.38%.
For `E89S`, “relative binding score” read 2.22%.
`V136C`: “relative binding score” 42.2%.
`V161I`: “relative binding score” 110%.
`F66R` — result for “relative binding score”: 45%.

Block 5
Target: TAR DNA-binding protein 43, full length, His tag (TARDBP, Homo sapiens, UniProt Q13148, residues 1-414)
Method: RNA Bind-n-Seq
Form: RNA
Medium: in vitro
Concentration: 20 nM
Notes: 6-mer, flanks averaged, single round
Added: 150 mM LiCl
Reference: input library
Reading: higher = stronger binding
`UAGCGG` — result for “6-mer enrichment (R)”: 1.
`GAAGAA`: “6-mer enrichment (R)” 0.975.
Under “6-mer enrichment (R)”, `GUUGUU` is recorded as 1.37.
`UGUCGC` — result for “6-mer enrichment (R)”: 0.991.
`CGCACA` — result for “6-mer enrichment (R)”: 0.898.
`CACAGG`: “6-mer enrichment (R)” 0.882.
`CGGACC` — result for “6-mer enrichment (R)”: 0.929.
Under “6-mer enrichment (R)”, `UUUUGU` is recorded as 1.55.
For `ACGUAC`, “6-mer enrichment (R)” read 0.825.
`UCAGCG` — result for “6-mer enrichment (R)”: 0.895.
Under “6-mer enrichment (R)”, `AGGCCG` is recorded as 0.957.
`ACUCCC` — result for “6-mer enrichment (R)”: 1.12.
`UGAGAA`: “6-mer enrichment (R)” 1.
`AUUAGG` — result for “6-mer enrichment (R)”: 0.981.
For `AUGGCC`, “6-mer enrichment (R)” read 0.976.
`UAUACC` — result for “6-mer enrichment (R)”: 0.912.
Under “6-mer enrichment (R)”, `CUGAAU` is recorded as 0.892.

Excerpt of the above (block 1):
For `CGTATGCA`, the E-score was 0.112.
The E-score of `GCGCTCGA` is reported as -0.233.
`CCAAATGA` gave an E-score of 0.185.
`CTTGCAAC` gave an E-score of 0.0564.
`ATTCCGTG` gave an E-score of 0.00712.
For `GTACGGCA`, the E-score was -0.104.
The E-score of `ACAGAGGT` is reported as 0.0248.
For `CGAAGTGC`, the E-score was 0.0324.
`GATGCGGC` gave an E-score of -0.288.
With `AAACTCTT` the E-score was -0.0445.
For `AAGCCATT`, the E-score was 0.162.
